Experimental data pooled from the literature.
A part holds a random share of what one study measured. Values joined by “and” are separate records of one study, mostly repeats; a detail may differ.
Chain of UniProt P42680 (whole entry, looked up): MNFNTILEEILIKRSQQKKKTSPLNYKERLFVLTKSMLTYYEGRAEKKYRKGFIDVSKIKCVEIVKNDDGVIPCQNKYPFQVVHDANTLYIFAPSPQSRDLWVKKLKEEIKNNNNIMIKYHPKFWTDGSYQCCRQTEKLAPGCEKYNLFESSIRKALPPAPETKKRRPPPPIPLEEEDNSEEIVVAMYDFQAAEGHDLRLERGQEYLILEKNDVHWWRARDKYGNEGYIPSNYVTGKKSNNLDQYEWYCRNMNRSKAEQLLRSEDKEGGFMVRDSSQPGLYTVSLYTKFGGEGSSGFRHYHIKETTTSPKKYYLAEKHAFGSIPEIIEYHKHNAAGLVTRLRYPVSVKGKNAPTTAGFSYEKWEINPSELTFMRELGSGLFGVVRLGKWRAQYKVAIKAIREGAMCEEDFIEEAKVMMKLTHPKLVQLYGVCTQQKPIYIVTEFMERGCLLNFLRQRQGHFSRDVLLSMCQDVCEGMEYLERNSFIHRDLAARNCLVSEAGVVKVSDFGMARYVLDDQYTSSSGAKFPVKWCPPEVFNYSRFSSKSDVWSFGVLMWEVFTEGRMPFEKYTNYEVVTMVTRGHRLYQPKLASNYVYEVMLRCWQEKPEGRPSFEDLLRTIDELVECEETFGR
Chain of UniProt Q05513 (whole entry, looked up): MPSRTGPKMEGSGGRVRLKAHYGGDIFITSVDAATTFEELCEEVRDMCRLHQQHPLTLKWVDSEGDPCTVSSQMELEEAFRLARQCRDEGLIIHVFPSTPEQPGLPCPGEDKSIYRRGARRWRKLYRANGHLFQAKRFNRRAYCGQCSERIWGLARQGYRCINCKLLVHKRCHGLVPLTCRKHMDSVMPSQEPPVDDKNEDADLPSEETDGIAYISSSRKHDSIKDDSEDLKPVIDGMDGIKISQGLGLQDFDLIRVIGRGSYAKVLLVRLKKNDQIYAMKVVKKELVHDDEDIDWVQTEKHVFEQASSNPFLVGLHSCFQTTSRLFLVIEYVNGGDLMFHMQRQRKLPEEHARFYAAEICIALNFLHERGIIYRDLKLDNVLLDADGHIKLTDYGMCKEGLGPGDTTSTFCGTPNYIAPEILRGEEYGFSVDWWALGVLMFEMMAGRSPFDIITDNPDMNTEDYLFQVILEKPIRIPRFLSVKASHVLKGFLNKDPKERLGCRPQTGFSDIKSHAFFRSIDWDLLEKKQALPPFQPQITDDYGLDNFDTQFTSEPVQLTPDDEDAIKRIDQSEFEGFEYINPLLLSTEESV
Chain of UniProt Q9P286 (whole entry, looked up): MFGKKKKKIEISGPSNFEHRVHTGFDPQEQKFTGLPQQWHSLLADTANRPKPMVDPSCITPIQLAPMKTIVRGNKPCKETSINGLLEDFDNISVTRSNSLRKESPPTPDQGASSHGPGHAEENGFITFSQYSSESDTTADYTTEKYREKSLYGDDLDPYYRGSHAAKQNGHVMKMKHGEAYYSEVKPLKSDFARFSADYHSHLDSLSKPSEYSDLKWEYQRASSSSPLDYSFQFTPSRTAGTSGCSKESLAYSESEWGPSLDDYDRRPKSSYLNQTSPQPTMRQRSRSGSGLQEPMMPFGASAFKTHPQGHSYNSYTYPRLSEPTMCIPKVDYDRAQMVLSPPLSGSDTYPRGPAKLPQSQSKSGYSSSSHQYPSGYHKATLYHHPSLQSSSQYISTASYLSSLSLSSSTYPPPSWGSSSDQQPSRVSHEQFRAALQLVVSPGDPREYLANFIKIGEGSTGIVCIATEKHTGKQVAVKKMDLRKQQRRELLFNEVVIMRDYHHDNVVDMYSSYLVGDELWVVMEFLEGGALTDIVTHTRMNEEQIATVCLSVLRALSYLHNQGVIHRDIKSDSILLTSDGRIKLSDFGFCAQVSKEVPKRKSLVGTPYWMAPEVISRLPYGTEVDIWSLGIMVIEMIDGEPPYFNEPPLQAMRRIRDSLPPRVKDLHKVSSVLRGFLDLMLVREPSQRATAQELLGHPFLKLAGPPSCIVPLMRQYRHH
Chain of UniProt Q9NYL2 (whole entry, looked up): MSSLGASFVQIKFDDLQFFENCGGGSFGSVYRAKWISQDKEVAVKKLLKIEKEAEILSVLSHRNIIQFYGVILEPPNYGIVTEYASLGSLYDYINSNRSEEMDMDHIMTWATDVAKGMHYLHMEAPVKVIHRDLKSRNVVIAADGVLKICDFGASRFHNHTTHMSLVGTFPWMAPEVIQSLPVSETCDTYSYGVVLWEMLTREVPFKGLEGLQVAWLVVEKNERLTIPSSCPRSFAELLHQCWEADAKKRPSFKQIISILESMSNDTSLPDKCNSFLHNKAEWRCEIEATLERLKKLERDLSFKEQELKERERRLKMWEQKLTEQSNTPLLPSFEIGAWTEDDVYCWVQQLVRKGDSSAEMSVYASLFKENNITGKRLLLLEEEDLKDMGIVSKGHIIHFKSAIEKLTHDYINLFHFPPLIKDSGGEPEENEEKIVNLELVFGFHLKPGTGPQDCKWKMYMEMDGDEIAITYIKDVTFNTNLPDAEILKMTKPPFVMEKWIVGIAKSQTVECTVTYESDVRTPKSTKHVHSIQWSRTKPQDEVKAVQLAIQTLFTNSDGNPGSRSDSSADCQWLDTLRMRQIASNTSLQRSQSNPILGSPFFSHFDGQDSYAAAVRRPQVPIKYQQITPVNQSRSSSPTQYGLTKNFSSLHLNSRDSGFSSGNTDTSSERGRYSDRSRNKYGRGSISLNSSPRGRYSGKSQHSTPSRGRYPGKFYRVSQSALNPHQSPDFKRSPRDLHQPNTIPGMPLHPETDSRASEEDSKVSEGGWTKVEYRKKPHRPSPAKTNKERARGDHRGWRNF
Chain of UniProt O96013 (whole entry, looked up): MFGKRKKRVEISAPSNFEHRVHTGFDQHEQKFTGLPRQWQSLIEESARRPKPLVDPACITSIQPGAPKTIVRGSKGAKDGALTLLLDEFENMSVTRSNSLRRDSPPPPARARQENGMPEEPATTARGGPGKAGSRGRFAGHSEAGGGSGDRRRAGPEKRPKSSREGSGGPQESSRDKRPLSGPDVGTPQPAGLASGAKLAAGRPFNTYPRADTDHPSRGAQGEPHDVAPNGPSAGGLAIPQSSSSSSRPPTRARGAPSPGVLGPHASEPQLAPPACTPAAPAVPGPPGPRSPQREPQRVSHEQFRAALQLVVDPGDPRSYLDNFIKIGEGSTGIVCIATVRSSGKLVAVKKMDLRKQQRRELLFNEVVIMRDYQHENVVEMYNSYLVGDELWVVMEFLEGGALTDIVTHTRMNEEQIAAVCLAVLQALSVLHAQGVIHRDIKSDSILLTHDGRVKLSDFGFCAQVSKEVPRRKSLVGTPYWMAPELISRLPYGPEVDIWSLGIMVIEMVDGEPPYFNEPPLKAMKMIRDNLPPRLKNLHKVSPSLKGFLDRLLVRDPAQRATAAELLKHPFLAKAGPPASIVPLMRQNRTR
Chain of UniProt P08069 (whole entry, looked up): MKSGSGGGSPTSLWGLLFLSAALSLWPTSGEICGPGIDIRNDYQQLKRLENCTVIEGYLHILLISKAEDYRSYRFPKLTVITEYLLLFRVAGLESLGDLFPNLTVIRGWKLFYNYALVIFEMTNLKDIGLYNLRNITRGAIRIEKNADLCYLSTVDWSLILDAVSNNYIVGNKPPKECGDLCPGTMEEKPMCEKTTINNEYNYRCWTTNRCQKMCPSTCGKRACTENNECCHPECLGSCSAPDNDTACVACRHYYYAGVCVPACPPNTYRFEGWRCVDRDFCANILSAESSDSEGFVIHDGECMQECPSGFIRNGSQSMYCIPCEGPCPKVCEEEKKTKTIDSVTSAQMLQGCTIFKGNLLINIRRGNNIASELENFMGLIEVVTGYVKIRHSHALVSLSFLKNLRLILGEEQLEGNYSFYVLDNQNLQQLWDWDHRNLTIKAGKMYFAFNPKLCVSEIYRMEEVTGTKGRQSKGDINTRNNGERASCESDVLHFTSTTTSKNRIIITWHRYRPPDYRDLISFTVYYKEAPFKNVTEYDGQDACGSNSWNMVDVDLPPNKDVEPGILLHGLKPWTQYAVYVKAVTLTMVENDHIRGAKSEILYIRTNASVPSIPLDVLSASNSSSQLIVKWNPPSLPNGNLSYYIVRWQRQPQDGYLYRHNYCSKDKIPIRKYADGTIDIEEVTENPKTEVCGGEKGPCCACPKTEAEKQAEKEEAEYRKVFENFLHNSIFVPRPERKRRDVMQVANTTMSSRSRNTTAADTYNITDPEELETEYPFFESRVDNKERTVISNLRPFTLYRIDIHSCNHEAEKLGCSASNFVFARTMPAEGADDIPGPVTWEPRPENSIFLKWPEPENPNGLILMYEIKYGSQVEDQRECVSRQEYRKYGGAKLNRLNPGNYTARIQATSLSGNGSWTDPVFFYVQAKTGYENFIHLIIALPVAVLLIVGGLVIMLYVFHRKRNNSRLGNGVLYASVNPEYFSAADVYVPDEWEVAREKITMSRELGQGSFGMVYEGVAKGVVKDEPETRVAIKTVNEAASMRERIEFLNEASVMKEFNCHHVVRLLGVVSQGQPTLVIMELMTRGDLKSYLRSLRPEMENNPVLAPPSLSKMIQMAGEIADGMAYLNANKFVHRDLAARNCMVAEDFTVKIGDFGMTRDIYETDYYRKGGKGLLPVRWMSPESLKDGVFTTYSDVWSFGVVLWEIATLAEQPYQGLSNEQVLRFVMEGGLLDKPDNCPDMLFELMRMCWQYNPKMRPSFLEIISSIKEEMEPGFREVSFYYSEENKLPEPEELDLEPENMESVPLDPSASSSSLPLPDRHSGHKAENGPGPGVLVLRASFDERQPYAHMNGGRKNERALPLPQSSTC
Chain of UniProt Q14012 (whole entry, looked up): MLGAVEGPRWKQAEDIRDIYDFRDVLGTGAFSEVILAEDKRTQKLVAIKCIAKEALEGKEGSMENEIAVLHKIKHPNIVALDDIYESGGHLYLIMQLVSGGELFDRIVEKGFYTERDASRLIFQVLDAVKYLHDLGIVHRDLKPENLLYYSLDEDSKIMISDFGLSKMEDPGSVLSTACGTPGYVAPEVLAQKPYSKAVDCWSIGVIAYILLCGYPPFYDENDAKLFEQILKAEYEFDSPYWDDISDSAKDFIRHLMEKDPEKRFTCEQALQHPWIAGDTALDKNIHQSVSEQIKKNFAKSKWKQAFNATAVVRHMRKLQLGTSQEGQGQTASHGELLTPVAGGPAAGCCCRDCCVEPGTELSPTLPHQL

Series 1 — host: human; medium: microsomes or S9; concentration: 2 µM; time: 0.5 h
`CC(C)COc1cc(=O)n2c(c1C(=O)NCCCN1CCOCC1)CCCCC2` has a remaining compound of 85.5%.
`CC(C)(C)OC(=O)NCCNC(=O)Cc1cc(=O)oc2cc(O)ccc12` gave a remaining compound of greater than 99%.
For `O=C(NCC1OCCc2sc(F)cc21)c1ccn2nnnc2c1` (centres unmarked), the remaining compound was greater than 100%.
`O=C(NCC1COc2ccccc2O1)c1c(-c2cncnc2)cc(=O)n2c1CCCC2` (centres unmarked) has a remaining compound of 73%.
For `CC(NS(C)(=O)=O)c1nnc(N2CC3(CCC3)c3ccccc32)n1C` (centres unmarked), the remaining compound was 84%.

Series 2 — cell line: HaCaT; concentration: 100 µM; time: 60 h
With `C[C@]12C=CC(=O)C=C1CC[C@@H]1[C@@H]2[C@@H](O)C[C@@]2(C)[C@H]1CC[C@]2(O)C(=O)COP(=O)(O)O` the viability was 144%.
`CN1CCN(c2c(F)cc3c(=O)c(C(=O)O)cn4c3c2OCN4C)CC1` has a viability of 127%.
`OCc1ccc(O[C@@H]2O[C@H](CO)[C@@H](O)[C@H](O)[C@H]2O)cc1` gave a viability of 139%.
With `CCOC(=O)n1ccn(C)c1=S` the viability was 113%.
`C[C@H](CCC(=O)O)[C@H]1CC[C@H]2[C@@H]3CC[C@@H]4C[C@H](O)CC[C@]4(C)[C@H]3CC[C@]12C` gave a viability of 144%.
`COc1c(N2CCNC(C)C2)c(F)cc2c(=O)c(C(=O)O)cn(C3CC3)c12` (centres unmarked) gave a viability of 157%.

Series 3 — technique: Incucyte 3D growth; concentration: 30 µM; direction: higher = more growth
SMILES: CC(C)(C(=O)O)[C@H](NC(=O)Cc1cccc(I)c1)c1ccc2oc(=O)[nH]c2c1
It gave 2.57e+07 a.u. and 2.67e+07 a.u. and 1.71e+07 a.u. and 6.16e+07 a.u. and 2.8e+07 a.u. and 8.36e+07 a.u. for spheroid area (MEL-JUSO; 516.52 h).
It gave 3.35e+07 a.u. and 2.98e+07 a.u. and 4.6e+07 a.u. and 3.59e+07 a.u. and 3.34e+07 a.u. and 5.15e+07 a.u. for spheroid area (NCI-H1437; 162 h).
The spheroid area was 1.02e+07 a.u. and 1.25e+07 a.u. and 1.12e+07 a.u. and 9.31e+06 a.u. (NCI-H358; 282 h).
NCI-H358; 132 h — spheroid area: 7.11e+06 a.u. and 5.63e+06 a.u. and 7.59e+06 a.u. and 4.48e+06 a.u. and 5.26e+06 a.u. and 5.3e+06 a.u.
For PC-9; 156 h: spheroid area read 1.17e+09 a.u. and 1.28e+09 a.u. and 1.21e+09 a.u. and 1.25e+09 a.u. and 1.26e+09 a.u.

Series 4 — technique: competition with immobilised ligand; concentration: 1 µM
SMILES: O=C1NC(c2ccccn2)Sc2ccccc21 (centres unmarked)
For Calcium/calmodulin-dependent protein kinase kinase 2 (CAMKK2, Homo sapiens, UniProt Q96RR4); cell-free assay: remaining binding read 95%.
It gave 100% for remaining binding (Cyclin-G-associated kinase (GAK, Homo sapiens, UniProt O14976); cell-free assay).
The remaining binding was 100% (Discoidin domain-containing receptor 2 (DDR2, Homo sapiens, UniProt Q16832); cell-free assay).
For Myosin-IIIb (MYO3B, Homo sapiens, UniProt Q8WXR4); binding: remaining binding read 96%.

Series 5 — effect on: enzyme activity; action: inhibitor; concentration: 0.5 µM; relative to: control
SMILES: CC(C)[C@H](CO)Nc1nc(Nc2cccc(Cl)c2)c2ncn(C(C)C)c2n1
It gave 92.2% for remaining activity (Casein kinase I isoform delta (CSNK1D, Homo sapiens, UniProt P48730)).
For Dual specificity protein kinase CLK2 (CLK2, Homo sapiens, UniProt P49760): remaining activity read 21.9%.
It gave 87.3% for remaining activity (Casein kinase I isoform epsilon (CSNK1E, Homo sapiens, UniProt P49674)).
Serine/threonine-protein kinase BRSK2 (BRSK2, Homo sapiens, UniProt Q8IWQ3) — remaining activity: 97.8%.
For Mitogen-activated protein kinase kinase kinase 20 (MAP3K20, Homo sapiens, UniProt Q9NYL2): remaining activity read 108%.
For Ephrin type-B receptor 3 (EPHB3, Homo sapiens, UniProt P54753): remaining activity read 102%.
For Tyrosine-protein kinase Tec (TEC, Homo sapiens, UniProt P42680): remaining activity read 127%.
The remaining activity was 76.8% (Serine/threonine-protein kinase PAK 5 (PAK5, Homo sapiens, UniProt Q9P286)).
It gave 110% for remaining activity (Calcium/calmodulin-dependent protein kinase type 1 (CAMK1, Homo sapiens, UniProt Q14012)).
SRSF protein kinase 1 (SRPK1, Homo sapiens, UniProt Q96SB4) — remaining activity: 77%.
For Calcium/calmodulin-dependent protein kinase kinase 1 (CAMKK1, Homo sapiens, UniProt Q8N5S9): remaining activity read 101%.
It gave 96.7% for remaining activity (Activin receptor type-1-like (ACVRL1, Homo sapiens, UniProt P37023)).
It gave 100% for remaining activity (Insulin-like growth factor 1 receptor (IGF1R, Homo sapiens, UniProt P08069)).
The remaining activity was 99.5% (Serine/threonine-protein kinase PAK 4 (PAK4, Homo sapiens, UniProt O96013)).
Tyrosine-protein kinase Yes (YES1, Homo sapiens, UniProt P07947) — remaining activity: 21.2%.
Ephrin type-A receptor 6 (EPHA6, Homo sapiens, UniProt Q9UF33) — remaining activity: 93.8%.
Serine/threonine-protein kinase Sgk2 (SGK2, Homo sapiens, UniProt Q9HBY8) — remaining activity: 103%.
Protein kinase C zeta type (PRKCZ, Homo sapiens, UniProt Q05513) — remaining activity: 102%.
The remaining activity was 95.9% (Tyrosine-protein kinase Fes/Fps (FES, Homo sapiens, UniProt P07332)).
Dual specificity protein kinase CLK1 (CLK1, Homo sapiens, UniProt P49759) — remaining activity: 67.5%.
Serine/threonine-protein kinase MARK1 (MARK1, Homo sapiens, UniProt Q9P0L2) — remaining activity: 94.5%.
It gave 98.9% for remaining activity (Tyrosine-protein kinase receptor TYRO3 (TYRO3, Homo sapiens, UniProt Q06418)).

Further values, each from its own experiment
For `CC(C)n1cnc(-c2ccc(F)cc2)c1-c1ncc(C(=O)Nc2ccc(N3CCN(C)CC3)cc2)[nH]1`, “patients with Tri-iodothyronine increased” read 0% (human, idiopathic pulmonary fibrosis; 60 mg once daily, trial, treatment-emergent).
`CCOC(=O)[C@@H]1CSCC(=O)N[C@H](CC)C(=O)N(C)[C@@H](C)C(=O)N[C@@H](CC(C)C)C(=O)N2CCC[C@H]2C(=O)N(CC(C)C)CC(=O)N[C@H](CC(C)C)C(=O)N(C)[C@@H](C)C(=O)N[C@@H](CC(C)C)C(=O)N1C` has a logD of 0.933 (hydrocarbon/water).

For quick reference, copied from above (series 1):
`CC(C)COc1cc(=O)n2c(c1C(=O)NCCCN1CCOCC1)CCCCC2` has a remaining compound of 85.5%.
`CC(C)(C)OC(=O)NCCNC(=O)Cc1cc(=O)oc2cc(O)ccc12` gave a remaining compound of greater than 99%.
For `O=C(NCC1OCCc2sc(F)cc21)c1ccn2nnnc2c1` (centres unmarked), the remaining compound was greater than 100%.
`O=C(NCC1COc2ccccc2O1)c1c(-c2cncnc2)cc(=O)n2c1CCCC2` (centres unmarked) has a remaining compound of 73%.
For `CC(NS(C)(=O)=O)c1nnc(N2CC3(CCC3)c3ccccc32)n1C` (centres unmarked), the remaining compound was 84%.
